Assay results pooled from the literature.
Numbered parts are unrelated; each lists some results of a single study. Values joined by “and” are separate records of one study, mostly repeats; a detail may differ.

Series 1 — measurement: inhibition
Structure (SMILES): CCCN1C(=O)C(O)(C(=O)O)Oc2cc(F)ccc21 (stereo not drawn)
organism = Arabidopsis thaliana; test = hypocotyl length; test system = Col-0; conditions = 25.0 µg/mL, 7 days, seed germination, dark; result = 28.9%
organism = Arabidopsis thaliana; test = hypocotyl length; test system = Col-0, seedlings; conditions = 12.5 µg/mL; result = 22.4%
organism = Arabidopsis thaliana; test = hypocotyl length; test system = Col-0; conditions = 12.5 µg/mL, 7 days, seed germination, dark; result = 22.4%
organism = Arabidopsis thaliana; test = hypocotyl length; test system = Col-0, seedlings; conditions = 100 µg/mL; result = 68.9%
organism = Arabidopsis thaliana; test = hypocotyl length; test system = Col-0; conditions = 100 µg/mL, 7 days, seed germination, dark; result = 68.9%
organism = Arabidopsis thaliana; test = root length; test system = Col-0, seedlings; conditions = 50 µg/mL; how to read = relative to: water control; result = 65.5%
organism = Arabidopsis thaliana; test = root length; test system = Col-0, seedlings; conditions = 25 µg/mL; how to read = relative to: water control; result = 51.1%
organism = Arabidopsis thaliana; test = root length; test system = Col-0, seedlings; conditions = 50 µg/mL; result = 65.5%
organism = Arabidopsis thaliana; test = root length; test system = Col-0, seedlings; conditions = 3.125 µg/mL; result = 9.42%
organism = Arabidopsis thaliana; test = root length; test system = Col-0, seedlings; conditions = 6.25 µg/mL; how to read = relative to: water control; result = 22.5%
organism = Amaranthus retroflexus; test = fresh weight; conditions = 150 g ai/ha, post-emergence treatment; result = 66.2% and 64% and 61.6%
organism = Arabidopsis thaliana; test = root length; test system = Col-0, seedlings; conditions = 25 µg/mL; result = 51.1%

Series 2 — read-out: thermal unfolding; method: differential scanning fluorimetry; tested at: 5.5 µM; direction: higher = more unfolded; measurement: SYPRO Orange fluorescence
SMILES: C[C@@H]1CN(c2ccc(-c3cc(C(=O)NCCOCCOCCOCCOCCOCCOCCNC(=O)/C=C/c4[nH]cc(C(=O)N[C@@H](CC(N)=O)c5ccc(F)c(Cl)c5)c4-c4ccc(Cl)cc4F)ccc3F)cc2NC(=O)c2ccc(F)cc2C(F)(F)F)C[C@H](C)N1C
DCAF1: DDB1- and CUL4-associated factor 1 (DCAF1, Homo sapiens, UniProt Q9Y4B6)
Chain of UniProt Q9Y4B6 (whole entry, looked up): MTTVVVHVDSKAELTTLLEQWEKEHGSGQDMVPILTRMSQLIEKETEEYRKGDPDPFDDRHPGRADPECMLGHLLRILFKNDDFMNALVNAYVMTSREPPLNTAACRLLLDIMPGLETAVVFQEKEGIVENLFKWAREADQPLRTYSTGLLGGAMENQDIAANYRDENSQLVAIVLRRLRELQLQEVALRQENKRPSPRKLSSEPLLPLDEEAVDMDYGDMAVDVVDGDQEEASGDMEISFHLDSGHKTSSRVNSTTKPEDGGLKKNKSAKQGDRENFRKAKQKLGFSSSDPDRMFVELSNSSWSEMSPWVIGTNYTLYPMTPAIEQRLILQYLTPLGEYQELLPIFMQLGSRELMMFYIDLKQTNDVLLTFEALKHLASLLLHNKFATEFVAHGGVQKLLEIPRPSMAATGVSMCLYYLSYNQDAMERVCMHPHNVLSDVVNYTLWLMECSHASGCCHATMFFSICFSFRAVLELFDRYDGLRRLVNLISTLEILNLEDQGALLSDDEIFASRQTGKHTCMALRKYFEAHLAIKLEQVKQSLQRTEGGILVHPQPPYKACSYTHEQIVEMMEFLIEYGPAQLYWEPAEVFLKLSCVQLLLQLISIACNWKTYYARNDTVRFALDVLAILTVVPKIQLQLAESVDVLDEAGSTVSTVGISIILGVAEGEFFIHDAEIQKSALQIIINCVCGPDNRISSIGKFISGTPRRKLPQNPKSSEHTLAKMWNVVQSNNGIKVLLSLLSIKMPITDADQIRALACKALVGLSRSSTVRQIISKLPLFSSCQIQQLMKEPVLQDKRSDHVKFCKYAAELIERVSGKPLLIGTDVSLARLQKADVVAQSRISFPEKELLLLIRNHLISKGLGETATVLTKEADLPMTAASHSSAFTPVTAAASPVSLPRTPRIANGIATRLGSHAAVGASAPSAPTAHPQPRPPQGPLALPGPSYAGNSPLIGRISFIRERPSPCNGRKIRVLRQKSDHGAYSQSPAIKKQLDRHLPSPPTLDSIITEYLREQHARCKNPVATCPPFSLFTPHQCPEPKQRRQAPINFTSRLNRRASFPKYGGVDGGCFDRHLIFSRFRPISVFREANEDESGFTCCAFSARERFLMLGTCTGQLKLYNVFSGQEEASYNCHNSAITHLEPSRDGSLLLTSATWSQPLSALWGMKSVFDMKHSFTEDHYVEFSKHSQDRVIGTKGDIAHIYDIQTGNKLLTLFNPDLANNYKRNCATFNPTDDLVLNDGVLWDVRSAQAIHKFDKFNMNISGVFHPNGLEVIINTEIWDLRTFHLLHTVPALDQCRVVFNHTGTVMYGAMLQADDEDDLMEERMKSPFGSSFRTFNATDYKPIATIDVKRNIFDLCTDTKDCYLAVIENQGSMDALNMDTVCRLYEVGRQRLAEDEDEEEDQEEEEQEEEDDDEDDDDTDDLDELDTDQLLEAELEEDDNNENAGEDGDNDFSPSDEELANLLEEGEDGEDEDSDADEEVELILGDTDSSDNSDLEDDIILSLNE
WDR5: WD repeat-containing protein 5 (WDR5, Homo sapiens, UniProt P61964)
target = DCAF1; temperature = 83.01 °C; result = 37700 a.u.
target = DCAF1; temperature = 49.6 °C; result = 17800 a.u.
target = DCAF1; temperature = 48.6 °C; result = 17000 a.u.
target = DCAF1; temperature = 63.81 °C; result = 54100 a.u.
target = WDR5; temperature = 52.2 °C; result = 16600 a.u.
target = DCAF1; temperature = 92.81 °C; result = 30200 a.u.
target = DCAF1; temperature = 46 °C; result = 14900 a.u.
target = WDR5; temperature = 70.21 °C; result = 28100 a.u.
target = WDR5; temperature = 50 °C; result = 16400 a.u.
target = WDR5; temperature = 53.61 °C; result = 16700 a.u.
target = DCAF1; temperature = 53.41 °C; result = 23100 a.u.

Series 3 — SMILES: O=c1[nH]c(=S)n(C[C@H]2CCCO2)c2nc[nH]c12; measurement: inhibition
AOC3: Amine oxidase [copper-containing] 3 (AOC3, Homo sapiens, UniProt Q16853)
Chain of UniProt Q16853 (whole entry, looked up): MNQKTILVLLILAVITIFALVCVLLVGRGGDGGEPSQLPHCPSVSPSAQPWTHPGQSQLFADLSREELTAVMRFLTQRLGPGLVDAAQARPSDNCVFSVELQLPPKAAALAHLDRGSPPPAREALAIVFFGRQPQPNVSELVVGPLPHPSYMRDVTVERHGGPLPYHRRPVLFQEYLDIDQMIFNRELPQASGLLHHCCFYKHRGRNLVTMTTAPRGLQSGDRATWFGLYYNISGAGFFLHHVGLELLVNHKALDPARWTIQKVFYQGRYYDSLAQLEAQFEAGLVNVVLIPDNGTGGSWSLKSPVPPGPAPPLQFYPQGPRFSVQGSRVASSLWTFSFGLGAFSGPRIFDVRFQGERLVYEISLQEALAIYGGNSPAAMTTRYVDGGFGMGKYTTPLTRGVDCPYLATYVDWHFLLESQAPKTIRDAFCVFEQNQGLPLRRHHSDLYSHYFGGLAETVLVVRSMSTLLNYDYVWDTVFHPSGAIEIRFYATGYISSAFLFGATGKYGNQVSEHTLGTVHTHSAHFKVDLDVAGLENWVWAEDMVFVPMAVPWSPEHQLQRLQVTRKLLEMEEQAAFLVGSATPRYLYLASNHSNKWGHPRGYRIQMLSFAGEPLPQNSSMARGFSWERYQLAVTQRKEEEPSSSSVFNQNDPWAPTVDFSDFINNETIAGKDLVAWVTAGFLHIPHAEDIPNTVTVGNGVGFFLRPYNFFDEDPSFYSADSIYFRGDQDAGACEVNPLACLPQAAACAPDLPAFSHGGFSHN
MPO: Myeloperoxidase (MPO, Homo sapiens, UniProt P05164)
Chain of UniProt P05164 (whole entry, looked up): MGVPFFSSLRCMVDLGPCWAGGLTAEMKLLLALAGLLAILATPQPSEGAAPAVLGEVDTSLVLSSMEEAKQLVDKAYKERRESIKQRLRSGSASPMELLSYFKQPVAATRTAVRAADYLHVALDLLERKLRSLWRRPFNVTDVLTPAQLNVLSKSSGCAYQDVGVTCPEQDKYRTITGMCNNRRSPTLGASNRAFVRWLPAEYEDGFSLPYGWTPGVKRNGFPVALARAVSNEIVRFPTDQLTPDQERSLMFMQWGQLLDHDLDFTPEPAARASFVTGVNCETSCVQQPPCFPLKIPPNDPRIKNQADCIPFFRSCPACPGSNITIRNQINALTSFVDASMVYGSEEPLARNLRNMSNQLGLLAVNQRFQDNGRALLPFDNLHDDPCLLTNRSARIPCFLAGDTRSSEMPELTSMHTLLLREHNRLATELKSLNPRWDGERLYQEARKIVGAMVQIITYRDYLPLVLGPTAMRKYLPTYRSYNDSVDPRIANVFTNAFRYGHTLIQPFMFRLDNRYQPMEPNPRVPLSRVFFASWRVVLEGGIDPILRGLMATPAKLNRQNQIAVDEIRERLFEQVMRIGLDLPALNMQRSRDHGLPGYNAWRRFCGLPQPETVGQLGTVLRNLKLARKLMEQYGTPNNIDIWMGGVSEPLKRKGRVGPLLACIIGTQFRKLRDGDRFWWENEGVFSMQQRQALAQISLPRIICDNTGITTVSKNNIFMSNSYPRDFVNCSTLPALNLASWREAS
target = AOC3; read-out = enzyme activity; action = inhibitor; method = fluorescence; tested at = 37 nM; result = -17.2%
target = MPO; read-out = enzyme activity; action = inhibitor; method = fluorescence; tested at = 61.7 nM; result = 77.9% and 36.8% and 64.9% and 42.7% and 66.9% and 78.3% and 53.1%
target = AOC3; read-out = enzyme activity; action = inhibitor; method = fluorescence; tested at = 200 pM; result = -6.28%
target = MPO; method = Amplex Red; tested at = 1.111 µM; result = 98.8%
target = MPO; read-out = enzyme activity; tested at = 0.0023 µM; result = -11.7% and 17% and 1.15% and -14.8% and -13.5% and -3.88% and -5.44%
target = MPO; read-out = enzyme activity; tested at = 0.0015 µM; result = -15.4% and -4.31% and -5.76% and -8.76% and -26.8% and -11.8%

Series 4 — cell line: U-87 MG; tested at: concentration not given; relative to: DMSO; measurement: log2 fold change
SMILES: CCN1/C(=C/C=C2\CCCC(/C=C/C3=[N+](CC)c4ccccc4C3(C)C)=C2NCCCCCCCCN2CCC(Nc3nc4ccccc4n3Cc3ccc(F)cc3)CC2)C(C)(C)c2ccccc21
measured = TP53BP2 mRNA; result = 1.16
measured = HIVEP3 mRNA; result = -1.44
measured = XPOT mRNA; result = 0.832
measured = KLF5 mRNA; result = 1.7
measured = ST8SIA1 mRNA; result = -1.93
measured = NKAP mRNA; result = 1.24
measured = SALL1 mRNA; result = -0.86
measured = CMKLR2 mRNA; result = 1.34
measured = RUBCNL mRNA; result = 2.14
measured = CDK1 mRNA; result = -1.88
measured = MAMLD1 mRNA; result = -1.12
measured = HSPA13 mRNA; result = 1.23
measured = WNT7B mRNA; result = -2.96
measured = TVP23B mRNA; result = 0.807
measured = IL23A mRNA; result = 3.23
measured = PKP3 mRNA; result = -1.83
